Published values from different studies.
Parts stem from different laboratories: compare values within a part only.

Series 1 — method: aptamer microarray, sandwich; molecule type: DNA with 2'F-ANA; medium: in vitro; concentration: 200 nM; together with: Cy3 exosite-II aptamer, 400 nM; reading: higher = stronger binding; measurement: mean fluorescence intensity; oligonucleotide: GGTTGGTGTGGTTGG
Target: Prothrombin, mature alpha-thrombin (F2, Homo sapiens, UniProt P00734)
Setting: whole 15-mer aptamer, many near background
2'F-ANA at 2 5 8 11 13: 95 a.u.
2'F-ANA at 1 2 4 6 7 9 10 11 13 14 15: 49.5 a.u.
2'F-ANA at 1 2 6 8 9 10 11 12 14: 45.5 a.u.
2'F-ANA at 4 6 9 10 11: 75 a.u.
2'F-ANA at 1 5 6 7 8 9 11: 63.3 a.u.
2'F-ANA at 4 11 14 15: 92.8 a.u.
2'F-ANA at 2 5 6 8 9 10 11 12 13 14 15: 74.9 a.u.
2'F-ANA at 1 3 5 6 10 11 13 14 15: 53.9 a.u.
2'F-ANA at 3 11 13: 986 a.u.
2'F-ANA at 1 2 4 7 8 9 10 11 13: 59.6 a.u.
2'F-ANA at 1 4 6 13 14 15: 50.2 a.u.
2'F-ANA at 5 6 11 13 14: 45 a.u.
2'F-ANA at 4 6 8 9 10 15: 319 a.u.
2'F-ANA at 2 6 7 10 12 13: 145 a.u.
2'F-ANA at 1 2 3 4 6 7 8 9 10 11 14: 57.9 a.u.
2'F-ANA at 2 4 6 13 14: 78.5 a.u.

Series 2 — target: Sox, HMG box (Pigoraptor chileana); method: Spec-seq; molecule type: double-stranded DNA, one strand shown; medium: in vitro; concentration: not given; setting: whole probe, mean of replicates; baseline: not given; reading: lower = stronger binding; measurement: relative binding energy; constant ends, left off below: GAGTCGTCTCGTCAGCAC … CCGTAGAGCACTCAGGTC
Residues (chain): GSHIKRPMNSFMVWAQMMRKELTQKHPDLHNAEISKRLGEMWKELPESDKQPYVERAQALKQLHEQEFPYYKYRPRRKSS
TGAGGTT: 0.832 ln ratio
CAGAGTT: 1.12 ln ratio
CCCTGTT: -0.904 ln ratio
CATATAA: -0.334 ln ratio
CATTACG: 0.137 ln ratio
CATTAAT: 0.00516 ln ratio
CATGTTT: 1.02 ln ratio
CATCCGG: 0.736 ln ratio
ACTCGTT: 0.206 ln ratio
GCCCGTT: 1.05 ln ratio
CATGGAA: 0.458 ln ratio
ATATGTT: -0.532 ln ratio
CGTGGTT: 1.07 ln ratio
TCTAGTT: 0.128 ln ratio
CATGATC: 0.681 ln ratio
TCGCGTT: 1.22 ln ratio

Series 3 — method: RNA Bind-n-Seq; molecule type: RNA; medium: in vitro; concentration: 200 nM; setting: whole 134-nt RNA, ends assumed; together with: 150 mM KCl; baseline: input library; reading: higher = stronger binding; measurement: log2 enrichment
Target: Fragile X messenger ribonucleoprotein 1, C-terminal low-complexity region (Fmr1, Mus musculus, UniProt P35922)
Constant ends, left off below: GGGAGUUCUACAGUCCGACGAUC … UGGAAUUCUCGGGUGUCAAGG
CCUGUGCUACACAUCGUAUGUACCGAAUCGGGCCCCCCCGGGCCCCCCCGGGCCCCCCCGGAAAGUAUUAUGUUACGCCGUUCGGAUCUG: -0.73
CAAGUCCUGUGCUACACAUCGUAUGUACCGAAUCGGGCCCGGGGCCCGGCCCGGGGAAAGUAUUAUGUUACGCCGUUCGGAUCUGCACUU: -0.909
UCCUGUGCUACACAUCGUAUGUACCGAAUCGGGGUUUUUGGGGUUUUUGGGGUUUUUGGGAAAGUAUUAUGUUACGCCGUUCGGAUCUGC: 0.492
UCAAGUCCUGUGCUACACAUCGUAUGUACCGAAUCGGCCGGGGCCGGGCCGGGGAAAGUAUUAUGUUACGCCGUUCGGAUCUGCACUUCC: -0.0756
AGUCCUGUGCUACACAUCGUAUGUACCGAAUCGGGUUUGGGAAAAAAAGGGAAAGGGAAAGUAUUAUGUUACGCCGUUCGGAUCUGCACU: 0.271
UCAAGUCCUGUGCUACACAUCGUAUGUACCGAAUCGGGGCCGGGGCCGGCCGGGGAAAGUAUUAUGUUACGCCGUUCGGAUCUGCACUUC: -0.339
UGUUGAUGCUGUAAUUGCUGAACUUAAAAAGCAGUCUAAACCUGUGACCACCCCUGAAGAAAUUGCACAGGUAAGGACUUAACAUGUUAC: 0.474
ACCAUGCAGGUGGGCAUCUUUGGGAAGUGGGGCAAGGGGGGGAUAGGGAGGGGGGUAACACUUUGGGAACAGGUGGUCCCCGGUCGUUUC: 0.739
CUCAAGUCCUGUGCUACACAUCGUAUGUACCGAAUCGGUGGAAAAAAAGGUGGAAAGUAUUAUGUUACGCCGUUCGGAUCUGCACUUCCA: -0.129
CCUGUGCUACACAUCGUAUGUACCGAAUCGGCCCCCCCGGGGCCCCCCCGGGCCCCCCCGGAAAGUAUUAUGUUACGCCGUUCGGAUCUG: -0.668
AAGUCCUGUGCUACACAUCGUAUGUACCGAAUCGGGCCCCGGGCCCCGGGCCCCGGAAAGUAUUAUGUUACGCCGUUCGGAUCUGCACUU: -0.642
CACAGACAACACGCACCCACACAGACACAGAGGGAAGGGGUUGGGAUGGGGACAGGGUGCACAGCAGGGCGGGGUAGGACCCAAACCCCU: 1.18
UCCUGUGCUACACAUCGUAUGUACCGAAUCGGGAAAAAAGGGAAAAAAGGGAAAAAAGGGAAAGUAUUAUGUUACGCCGUUCGGAUCUGC: -0.317
UUUACCCCUCACUGGAGUCAGAUGAAGACAACCCCAUCUUUAAGUCCCGGUCGAAGAAAAGGAAAGGCUCAGACGACGCUCCCUACAGCC: -0.0807

Series 4 — method: RNA Bind-n-Seq; molecule type: RNA; medium: in vitro; concentration: 365 nM; baseline: no-protein control; reading: higher = stronger binding; measurement: RBNS enrichment (R)
Target: RNA binding protein fox-1 homolog 2, RRM domain, GST-SBP tag (RBFOX2, Homo sapiens, UniProt O43251-10, residues 100-194)
Setting: natural RNA segment, single round, ends assumed
Constant ends, left off below: GGGAGUUCUACAGUCCGACGAUC … UGGAAUUCUCGGGUGCCAA
Residues (chain): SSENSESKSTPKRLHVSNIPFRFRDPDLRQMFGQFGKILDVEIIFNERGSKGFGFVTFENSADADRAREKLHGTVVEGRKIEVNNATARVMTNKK
GGCCUCCUCUCUCCAGUGAUGUAAGUGAAUGGAAGCCAUCACUGGCUGCACAUACCUUUUUCAAAAGGGACACUCGGGAAGUCACUGCUGUGACCGUUUCGAUGUUGAUA: 2.93
GGACUCCGUAUGCAUUACAAGUACUUUGAAACGGAUGACCCAGAAUUCUAUAAGUCCAAGGUGUGCUUUAUCCUCAACAAUGACAUGAGUGAGAUGGAGCUGGUCUUUGC: 2.66
UCACUGCAACCUCCACCUCCUGGGUUCAAGCAAUUCUUGUGCCUCAGCCUCCCGAGUAGCUGGGAUUACAGGCACCCACCACCACGCUCAGCUAAUUUUUGUAUUUUUAG: 0.575
GCAGGGUCAGCCGGCUGUCAGAGUCUAAGGUCUCCAGCAGCCAUCAGGGUAAUACCCUGACACUGGAGUCCAGACGCAACCAGCUUUAACCAAUGGAAAACGGGGUUGGC: 0.225
AGCACAAUGUGACCCAACUUAAAAUUUGGGGGAAAAAGAAUGCAGGAGUGAAAUAACCAAGUCAAAACCAUGUACUAUCUCCUUGGGGGUUAGGGAUGCUAAGAAGAGCC: 0.888
AUCAUCAUACUCUAGAAUCUUGUCUGUCACUCACUACAUGAAUAAGCAAAUAUUGUCUUCAAAAGAAUGCACAAGAACCACAAUUAAGAUGUCAUAUUAUUUUGAAAGUA: 0.476
CACCUACCUCCUGGAGCACGUGUUGCUGCCCAGCUGGUGGCCAGCCACACCAACCCUGUGCUCUCUGGCCCCCAGCUGGCCACACUUCUCCAGGAGGGACCCUUGGACUU: 0.178
CUUUUCUGUUUGCUAAGUGAGGAUGAAAAAAUAACACUGUACUGCAAUAAGGGGAGAGUAACCCUGUCUAAUGAAACCUGUGUCUCUGAGAGUAGAGUCACUGGAACACU: 0.877
AACAGUCUAGUUAUAUUCCCUCUUCUUGCAAAGCACAAGCUGGGACCGCGAGCACAUUGCAGCCCCAACGGUGGCCCAUCUUCAGCGGAGAGCGAGAACCAUUUUGGAAA: 0.172
UUCCAGGGAGCUCAGUUUGAUCAUUCUGGGAAUUCUUGUCCUGCCAGCCUGGUGCGGCUGGGAUCACACUUCAAGGAUGGACAGUGGUGUCUCUUUGGGAGAUGGUGUUC: 0.328
AAAUAUGUGAUUCCAGGCUUAAGAAAUUGAUUAUAUUUUAAAAUAAUUAUUUUUUUAAAAACGUAAUUUGUUUUUAAAAGAUGAGUCUCCAUUCAUUGGCUAAUCCAUAC: 0.828
UAAACUCUGACUUCAAAGGUUUUUGGGGAAAGAUAGGUUUACCUCACAGUUAUGUUUCCAUUGUAAUUUCUAGGUUCCUCACAAAAAUCUAUUUCAGUGCUGUAGCUGUU: 0.401

Excerpt of the above (series 2):
GCCCGTT: 1.05 ln ratio
CATGGAA: 0.458 ln ratio
ATATGTT: -0.532 ln ratio
CGTGGTT: 1.07 ln ratio
